Measured values from different studies.
Each line is one published result; not all experiments were run side by side. Numbers after ± are the reported error. * marks the point of attachment.
MIB2: MIB2 1-836 (Homo sapiens, UniProt Q96AX9)
UniProt Q96AX9, sequence (whole entry, looked up): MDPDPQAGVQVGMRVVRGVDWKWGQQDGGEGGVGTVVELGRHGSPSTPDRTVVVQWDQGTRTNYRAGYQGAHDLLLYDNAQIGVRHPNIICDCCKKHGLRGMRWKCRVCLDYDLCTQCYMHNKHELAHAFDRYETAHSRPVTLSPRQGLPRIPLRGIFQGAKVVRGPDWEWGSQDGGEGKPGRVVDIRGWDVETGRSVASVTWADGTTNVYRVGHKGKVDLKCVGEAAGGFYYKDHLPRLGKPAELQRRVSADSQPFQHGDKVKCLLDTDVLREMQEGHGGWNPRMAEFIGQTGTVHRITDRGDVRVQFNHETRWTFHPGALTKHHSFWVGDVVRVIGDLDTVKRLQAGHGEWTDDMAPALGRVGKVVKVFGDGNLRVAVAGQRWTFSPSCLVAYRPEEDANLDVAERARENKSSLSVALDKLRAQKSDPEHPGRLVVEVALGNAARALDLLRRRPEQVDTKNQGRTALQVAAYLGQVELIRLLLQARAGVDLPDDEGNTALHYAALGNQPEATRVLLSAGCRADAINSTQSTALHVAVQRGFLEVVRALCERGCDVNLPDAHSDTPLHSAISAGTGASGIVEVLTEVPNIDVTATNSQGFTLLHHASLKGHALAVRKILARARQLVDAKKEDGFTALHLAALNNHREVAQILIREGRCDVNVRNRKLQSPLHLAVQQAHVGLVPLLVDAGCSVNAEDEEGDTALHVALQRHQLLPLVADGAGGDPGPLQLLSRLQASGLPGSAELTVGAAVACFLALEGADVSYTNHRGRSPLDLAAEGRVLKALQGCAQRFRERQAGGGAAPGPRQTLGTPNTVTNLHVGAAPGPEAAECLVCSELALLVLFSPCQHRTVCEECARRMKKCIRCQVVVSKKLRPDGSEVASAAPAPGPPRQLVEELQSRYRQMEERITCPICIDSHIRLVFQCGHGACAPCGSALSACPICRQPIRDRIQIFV
ORF1 3C-like protease: ORF1, 3C-like protease (Southampton virus, UniProt Q04544)
B1: K4 (human herpesvirus 8, UniProt Q98157); chain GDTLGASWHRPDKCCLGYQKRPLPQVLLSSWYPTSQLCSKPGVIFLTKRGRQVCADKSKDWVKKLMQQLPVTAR
B2: HBx 1-120 R26C/C61A/C69A (Hepatitis B virus, UniProt P03165); sequence looked up; chain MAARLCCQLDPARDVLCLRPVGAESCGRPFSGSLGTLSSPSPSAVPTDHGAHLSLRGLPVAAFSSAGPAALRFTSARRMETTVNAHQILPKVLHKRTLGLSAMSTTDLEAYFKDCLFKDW
B3: VP35 1-215 (Zaire ebolavirus, UniProt Q05127); chain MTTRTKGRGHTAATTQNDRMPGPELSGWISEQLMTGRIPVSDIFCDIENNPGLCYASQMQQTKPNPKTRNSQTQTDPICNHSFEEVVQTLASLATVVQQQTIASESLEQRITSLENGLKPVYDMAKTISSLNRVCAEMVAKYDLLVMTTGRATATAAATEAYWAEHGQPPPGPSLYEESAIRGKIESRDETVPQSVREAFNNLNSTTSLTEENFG
B4: Alpha-bungarotoxin (Bungarus multicinctus, UniProt P60615); chain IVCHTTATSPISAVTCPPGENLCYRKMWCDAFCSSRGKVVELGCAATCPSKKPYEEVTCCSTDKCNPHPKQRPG
B5: Cd300lf 20-128 (Mus musculus, UniProt Q6SJQ7-2); chain EDPVTGPEEVSGQEQGSLTVQCRYTSGWKDYKKYWCQGVPQRSCKTLVETDASEQLVKKNRVSIRDNQRDFIFTVTMEDLRMSDAGIYWCGITKGGLDPMFKVTVNIGP
B6: Ncr1 Fc fusion (Mus musculus, UniProt Q8C567); chain QRINTEKETLPKPIIWAKPSIMVTNGNSVNIWCQGAQSASEYQLYFEGSFFALERPKPSRSMNKVRFFISQMTSHTAGIYTCFYQSGELWSKSSNPLKLVVTGLYDTPNLWVYPRPEVTLGENVTFFCQLKTATSKFFLLKERGSNHIQNKYGNIQAEFPMGPVTRAHRGTYRCFGSYNDYAWSFPSEPVTLLITGGVENSSLAPTDPTSSLDYWEFDLSTNESGLQKDSAFWDHTTQN
B7: IgG1 antibody IgG1 (Homo sapiens); V domains shown; VH QVQLVQSGAQLKKPGESLKISCKGSGYNFSRYWIAWVRHMPGKGLEVMGIIYPDDSDTRYSPSVRGQVTISADKSTSIVYLQWSSLKASDTGIYYCARFGAGMTGMPRYFDTTRWFDPWGQGTQVTVSS; VL DQSVLTQPPSVSGAPGQRVTISCLGGSSNIGAGYDVHWYQHLPGAAPKLLISGNSNRPSGVPARFSGSKSGTSASLAITGLQAEDEADYYCQSYDNDLSQVFGGGTKLTVL
UniProt Q9Y657, sequence (whole entry, unmodified, looked up): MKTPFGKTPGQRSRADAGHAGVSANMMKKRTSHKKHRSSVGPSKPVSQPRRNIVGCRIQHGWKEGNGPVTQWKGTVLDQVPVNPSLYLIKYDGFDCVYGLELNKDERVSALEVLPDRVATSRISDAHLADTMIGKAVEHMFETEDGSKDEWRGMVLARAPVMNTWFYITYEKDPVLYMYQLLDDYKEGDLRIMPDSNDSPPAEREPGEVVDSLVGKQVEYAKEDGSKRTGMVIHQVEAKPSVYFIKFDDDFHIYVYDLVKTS
UniProt P22770, sequence (whole entry, looked up): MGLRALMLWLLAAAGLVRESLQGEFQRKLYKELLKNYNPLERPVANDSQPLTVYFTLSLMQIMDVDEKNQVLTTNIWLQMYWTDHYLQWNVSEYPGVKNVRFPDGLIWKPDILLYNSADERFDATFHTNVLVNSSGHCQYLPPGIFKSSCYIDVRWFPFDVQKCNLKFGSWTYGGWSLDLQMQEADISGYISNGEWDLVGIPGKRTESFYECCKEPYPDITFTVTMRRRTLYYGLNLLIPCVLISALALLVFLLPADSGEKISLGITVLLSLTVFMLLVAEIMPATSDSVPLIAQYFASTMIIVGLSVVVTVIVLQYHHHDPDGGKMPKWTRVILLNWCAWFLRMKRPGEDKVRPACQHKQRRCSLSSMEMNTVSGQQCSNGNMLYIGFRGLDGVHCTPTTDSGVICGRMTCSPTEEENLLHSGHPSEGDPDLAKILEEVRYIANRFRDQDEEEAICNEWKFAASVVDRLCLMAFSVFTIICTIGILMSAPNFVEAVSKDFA

Molecule | target or system | assay | system | conditions | how to read | endpoint | value
B1 (K4) | ORF74 whole (human herpesvirus 8, UniProt Q98146) | competition with anti-ORF74 antibody binding, flow cytometry | HEK293A.ORF74 | – | – | pIC50 | 6.84
hsaD (Mycobacterium tuberculosis, UniProt P9WNH5) | C/C(=C\C=C(/O)C(=O)O)C(=O)CC[C@@H]1C(=O)CC[C@]2(C)C(=O)CC[C@@H]12 | steady-state kinetics | – | pH 7.5, 25 °C | – | kcat/Km | 27000 M⁻¹ s⁻¹
ligA (Mycobacterium tuberculosis, UniProt P9WNV1) | xthA (Mycobacterium tuberculosis, UniProt P96273) | SEC | – | – | – | molecule per partner | 1
MSDNGPQNQRNAPRITFGGPSDSTG (N 1-25 (SARS-CoV-2, UniProt P0DTC9)) | G3BP2 fragment (Homo sapiens) | ITC | peptide | – | – | Kd | 10900 nM
B2 (HBx 1-120 R26C/C61A/C69A) | SPIN1 50-262 C96A/H252F (Homo sapiens, UniProt Q9Y657) | NMR titration | – | – | – | binding | binds
B3 (VP35 1-215) | MIB2 | ITC | – | – | – | Kd | 5400 ± 2500 nM
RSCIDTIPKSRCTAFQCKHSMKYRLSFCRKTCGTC (ShK mature tethered (UniProt P29187); C-terminal GPI anchor) | KCNA3 (Homo sapiens, UniProt P22001-1) | channel current block, two-electrode voltage clamp | – | – | – | koff | 0.012 s⁻¹
B3 (VP35 1-215) | MIB2 | ITC | – | – | – | molecule per partner | 0.8 ± 0.2
cyanovirin-N homolog fragment (sequence not shown) | gp120 (HIV-1) | binding to gp120, ELISA | – | – | – | EC50 | 15.3 nM
B4 (Alpha-bungarotoxin) | CHRNA7 (Gallus gallus, UniProt P22770) | radioligand binding | – | – | relative to: wild type, higher = more surface toxin binding | relative surface binding | 100%
SARS-CoV spike RBD fragment (SARS-CoV) (sequence not shown) | ACE2 fragment (Homo sapiens) | SPR | – | – | – | Kd | 66.5 nM
LGALS3 fragment (Homo sapiens) (sequence not shown) | S RBD (SARS-CoV-2) | native MS | – | – | – | molecule per partner | 1
B5 (Cd300lf 20-128) | ORF2 VP1 P domain (murine norovirus, UniProt Q80J94) | SPR | Fc fusion | – | – | Kd | 660 nM
NS3 fragment (hepatitis C virus) (sequence not shown) | NS5B full length (hepatitis C virus) | QCM-D | supported lipid bilayer | 24.0 °C | – | molecule per partner | 1
CSVTCG (CSVTCG peptide TSP1 properdin-like repeat (Homo sapiens)) | env gp120, 125I (HIV-1, UniProt P03377) | radioligand binding | peptide | apparent | – | Kd | 300 nM
S protein HR2 (mouse hepatitis virus) (sequence not shown) | S HR1 (Murine hepatitis virus A59) | crystal structure | – | – | – | binding | binds
Ac-DEFQLQ-pNA (N-acetyl, C-p-nitroanilide; pNA = O=[N+]([O-])c1ccc(N*)cc1) | ORF1 3C-like protease | substrate, pNA substrate cleavage | – | pH 8.5 | – | kcat | 0.33 s⁻¹
B6 (Ncr1 Fc fusion) | HA/IgG1 Fc fusion extracellular domain 18-528 (influenza A virus) | overlay blot | Fc fusion | – | – | binding | binds
nitroalkane oxidase (Fusarium oxysporum, UniProt Q8X1D8) | CCCCCC[N+](=O)[O-] | steady-state kinetics | – | pH 8, 30 °C, together with: O2 | – | kcat | 2 ± 0.1 s⁻¹
hsaC (Mycobacterium tuberculosis, UniProt P9WNW7) | Cc1ccc(O)c(O)c1CC[C@@H]1C(=O)CC[C@]2(C)C(=O)CC[C@@H]12 | steady-state kinetics | – | pH 7.5, 25 °C | – | kcat/Km | 5e+06 M⁻¹ s⁻¹
Ac-EFQLQ-pNA (N-acetyl, C-pNA; pNA = O=[N+]([O-])c1ccc(N*)cc1) | ORF1 3C-like protease | substrate, pNA substrate cleavage | – | pH 8.5 | – | kcat | 0.14 s⁻¹
B7 (IgG1 antibody IgG1) | SARS-CoV-2 spike RBD (SARS-CoV-2) | SPR | antibody | – | – | binding | binds

Repeated from above:
Molecule | target or system | assay | system | conditions | how to read | endpoint | value
B3 (VP35 1-215) | MIB2 | ITC | – | – | – | molecule per partner | 0.8 ± 0.2
hsaC (Mycobacterium tuberculosis, UniProt P9WNW7) | Cc1ccc(O)c(O)c1CC[C@@H]1C(=O)CC[C@]2(C)C(=O)CC[C@@H]12 | steady-state kinetics | – | pH 7.5, 25 °C | – | kcat/Km | 5e+06 M⁻¹ s⁻¹
Ac-EFQLQ-pNA (N-acetyl, C-pNA; pNA = O=[N+]([O-])c1ccc(N*)cc1) | ORF1 3C-like protease | substrate, pNA substrate cleavage | – | pH 8.5 | – | kcat | 0.14 s⁻¹
